Assay results pooled from the literature.
Each line is one published result; not all experiments were run side by side. Values joined by “and” are separate records of one study, mostly repeats; a detail may differ. ± gives the spread as reported.
NF-kappa-B inhibitor alpha: NF-kappa-B inhibitor alpha (Homo sapiens, UniProt P25963)
Sequence of UniProt P25963 (whole entry, looked up): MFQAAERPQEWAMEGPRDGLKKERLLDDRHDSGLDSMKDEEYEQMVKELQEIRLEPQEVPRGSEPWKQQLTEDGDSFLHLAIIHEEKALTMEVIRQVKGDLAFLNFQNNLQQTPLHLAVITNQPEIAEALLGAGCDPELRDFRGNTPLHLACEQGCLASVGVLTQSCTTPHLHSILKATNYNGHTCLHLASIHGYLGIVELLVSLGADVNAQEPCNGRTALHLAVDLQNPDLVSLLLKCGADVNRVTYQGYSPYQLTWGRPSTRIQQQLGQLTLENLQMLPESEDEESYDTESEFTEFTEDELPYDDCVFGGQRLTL
Aryl hydrocarbon receptor: Aryl hydrocarbon receptor (Danio rerio, UniProt Q9YGV3)
TOP2A: DNA topoisomerase 2-alpha (TOP2A, Homo sapiens, UniProt P11388)
Sequence of UniProt Q01105 (whole entry, unmodified, looked up): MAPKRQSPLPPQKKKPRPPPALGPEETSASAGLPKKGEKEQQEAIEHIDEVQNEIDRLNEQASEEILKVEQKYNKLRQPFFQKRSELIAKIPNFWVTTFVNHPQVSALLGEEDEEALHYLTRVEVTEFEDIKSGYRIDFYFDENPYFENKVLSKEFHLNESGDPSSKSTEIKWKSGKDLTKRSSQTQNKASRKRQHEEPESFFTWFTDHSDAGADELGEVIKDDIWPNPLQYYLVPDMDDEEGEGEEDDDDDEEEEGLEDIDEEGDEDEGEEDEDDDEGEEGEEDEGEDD
Sequence of UniProt O76090 (whole entry, unmodified, looked up): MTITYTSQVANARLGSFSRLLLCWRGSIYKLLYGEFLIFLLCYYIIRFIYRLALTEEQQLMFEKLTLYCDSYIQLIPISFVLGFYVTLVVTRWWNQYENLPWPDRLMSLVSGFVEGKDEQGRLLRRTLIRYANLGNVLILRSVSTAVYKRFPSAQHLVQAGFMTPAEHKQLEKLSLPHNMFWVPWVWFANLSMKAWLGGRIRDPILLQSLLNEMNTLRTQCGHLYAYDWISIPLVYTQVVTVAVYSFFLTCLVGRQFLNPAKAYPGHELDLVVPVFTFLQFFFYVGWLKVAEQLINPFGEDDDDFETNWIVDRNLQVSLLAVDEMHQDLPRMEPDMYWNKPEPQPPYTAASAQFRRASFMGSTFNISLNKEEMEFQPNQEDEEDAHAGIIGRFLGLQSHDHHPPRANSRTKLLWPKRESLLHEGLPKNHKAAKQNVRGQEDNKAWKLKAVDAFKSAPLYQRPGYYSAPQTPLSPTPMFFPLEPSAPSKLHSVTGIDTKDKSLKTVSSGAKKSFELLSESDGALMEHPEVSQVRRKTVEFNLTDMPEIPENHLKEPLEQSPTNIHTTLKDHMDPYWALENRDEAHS
Sequence of UniProt P00519 (whole entry, unmodified, looked up): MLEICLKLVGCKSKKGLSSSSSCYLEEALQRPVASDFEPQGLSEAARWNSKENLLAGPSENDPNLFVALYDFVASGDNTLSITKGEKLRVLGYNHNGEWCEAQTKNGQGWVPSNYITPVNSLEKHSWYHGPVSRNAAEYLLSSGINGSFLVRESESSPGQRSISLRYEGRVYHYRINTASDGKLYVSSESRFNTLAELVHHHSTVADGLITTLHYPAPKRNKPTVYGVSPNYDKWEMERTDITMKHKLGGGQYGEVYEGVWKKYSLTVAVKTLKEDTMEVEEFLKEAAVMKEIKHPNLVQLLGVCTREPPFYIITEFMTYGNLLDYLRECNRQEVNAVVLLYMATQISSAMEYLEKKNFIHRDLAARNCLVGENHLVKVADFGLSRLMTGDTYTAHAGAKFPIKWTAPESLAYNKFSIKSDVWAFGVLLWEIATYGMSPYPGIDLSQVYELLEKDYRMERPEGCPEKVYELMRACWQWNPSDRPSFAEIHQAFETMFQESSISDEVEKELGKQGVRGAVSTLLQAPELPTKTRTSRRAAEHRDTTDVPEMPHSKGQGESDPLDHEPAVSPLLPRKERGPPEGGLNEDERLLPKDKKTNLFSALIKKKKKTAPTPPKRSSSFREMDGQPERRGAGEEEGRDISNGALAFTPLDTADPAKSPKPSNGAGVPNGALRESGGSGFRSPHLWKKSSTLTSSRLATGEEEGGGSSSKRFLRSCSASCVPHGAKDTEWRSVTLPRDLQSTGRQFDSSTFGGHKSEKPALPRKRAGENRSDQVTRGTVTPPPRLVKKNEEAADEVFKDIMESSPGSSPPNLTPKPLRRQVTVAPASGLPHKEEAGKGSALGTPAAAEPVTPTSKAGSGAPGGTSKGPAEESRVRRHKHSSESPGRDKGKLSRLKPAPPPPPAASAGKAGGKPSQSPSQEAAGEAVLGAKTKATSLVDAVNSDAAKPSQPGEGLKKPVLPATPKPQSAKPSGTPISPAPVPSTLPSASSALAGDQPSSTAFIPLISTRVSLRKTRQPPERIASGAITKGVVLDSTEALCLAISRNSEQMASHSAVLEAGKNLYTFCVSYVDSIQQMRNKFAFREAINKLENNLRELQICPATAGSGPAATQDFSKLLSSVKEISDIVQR
Sequence of UniProt Q16774 (whole entry, unmodified, looked up): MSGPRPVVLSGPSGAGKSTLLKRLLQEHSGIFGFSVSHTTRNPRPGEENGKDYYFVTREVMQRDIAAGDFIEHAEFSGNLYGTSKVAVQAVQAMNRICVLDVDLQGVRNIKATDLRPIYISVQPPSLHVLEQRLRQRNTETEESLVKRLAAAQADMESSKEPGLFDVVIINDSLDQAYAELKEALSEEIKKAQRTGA
Sequence of UniProt P51575 (whole entry, looked up): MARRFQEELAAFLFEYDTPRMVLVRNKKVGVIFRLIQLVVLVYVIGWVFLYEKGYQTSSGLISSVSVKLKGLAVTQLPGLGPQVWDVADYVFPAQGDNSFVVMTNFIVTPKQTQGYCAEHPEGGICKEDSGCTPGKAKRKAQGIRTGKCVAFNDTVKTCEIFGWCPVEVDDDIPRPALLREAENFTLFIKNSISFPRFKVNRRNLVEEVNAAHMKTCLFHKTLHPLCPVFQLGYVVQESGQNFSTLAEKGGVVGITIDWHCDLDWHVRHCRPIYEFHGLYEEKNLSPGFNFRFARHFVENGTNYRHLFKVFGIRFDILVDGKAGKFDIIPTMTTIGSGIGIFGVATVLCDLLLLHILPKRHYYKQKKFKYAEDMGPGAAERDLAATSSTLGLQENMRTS
Sequence of UniProt O00567 (whole entry, looked up): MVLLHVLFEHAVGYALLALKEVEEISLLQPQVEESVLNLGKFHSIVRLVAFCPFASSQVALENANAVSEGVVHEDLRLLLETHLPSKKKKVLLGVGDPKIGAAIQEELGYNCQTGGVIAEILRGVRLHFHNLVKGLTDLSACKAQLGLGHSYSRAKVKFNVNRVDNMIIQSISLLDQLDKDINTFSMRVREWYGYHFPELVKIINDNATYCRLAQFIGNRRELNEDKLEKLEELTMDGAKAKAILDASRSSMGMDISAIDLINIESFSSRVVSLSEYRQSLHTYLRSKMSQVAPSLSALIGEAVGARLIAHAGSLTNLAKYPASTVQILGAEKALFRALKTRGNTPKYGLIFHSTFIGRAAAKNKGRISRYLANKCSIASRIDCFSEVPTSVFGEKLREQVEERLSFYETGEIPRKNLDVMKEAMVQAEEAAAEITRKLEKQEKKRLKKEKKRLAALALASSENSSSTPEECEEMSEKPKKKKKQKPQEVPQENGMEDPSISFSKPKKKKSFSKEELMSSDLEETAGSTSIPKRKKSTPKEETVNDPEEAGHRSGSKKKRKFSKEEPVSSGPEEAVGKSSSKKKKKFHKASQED
Sequence of UniProt P31941 (whole entry, looked up): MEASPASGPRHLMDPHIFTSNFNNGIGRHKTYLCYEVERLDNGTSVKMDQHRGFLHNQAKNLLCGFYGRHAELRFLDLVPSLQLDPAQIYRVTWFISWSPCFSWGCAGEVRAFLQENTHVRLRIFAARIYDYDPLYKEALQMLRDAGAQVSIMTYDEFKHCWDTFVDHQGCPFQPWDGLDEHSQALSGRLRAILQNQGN
Sequence of UniProt P18508 (whole entry, looked up): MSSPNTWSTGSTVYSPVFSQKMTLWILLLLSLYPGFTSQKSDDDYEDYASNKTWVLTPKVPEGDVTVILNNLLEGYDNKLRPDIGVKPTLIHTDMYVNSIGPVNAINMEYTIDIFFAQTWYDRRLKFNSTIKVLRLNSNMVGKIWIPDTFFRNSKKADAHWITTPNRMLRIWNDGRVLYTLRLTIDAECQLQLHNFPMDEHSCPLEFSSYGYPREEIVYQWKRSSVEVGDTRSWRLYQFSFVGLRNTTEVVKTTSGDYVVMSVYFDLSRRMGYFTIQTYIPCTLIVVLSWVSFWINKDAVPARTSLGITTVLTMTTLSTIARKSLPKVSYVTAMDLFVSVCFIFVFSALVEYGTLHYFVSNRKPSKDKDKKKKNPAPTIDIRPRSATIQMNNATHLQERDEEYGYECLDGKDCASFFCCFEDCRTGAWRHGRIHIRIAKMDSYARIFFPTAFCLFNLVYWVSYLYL
Sequence of UniProt P00698 (whole entry, looked up): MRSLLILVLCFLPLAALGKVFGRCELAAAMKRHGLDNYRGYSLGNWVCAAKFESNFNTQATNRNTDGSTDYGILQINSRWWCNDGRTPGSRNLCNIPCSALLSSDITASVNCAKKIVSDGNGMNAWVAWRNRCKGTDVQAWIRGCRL
Sequence of UniProt P0AC13 (whole entry, looked up): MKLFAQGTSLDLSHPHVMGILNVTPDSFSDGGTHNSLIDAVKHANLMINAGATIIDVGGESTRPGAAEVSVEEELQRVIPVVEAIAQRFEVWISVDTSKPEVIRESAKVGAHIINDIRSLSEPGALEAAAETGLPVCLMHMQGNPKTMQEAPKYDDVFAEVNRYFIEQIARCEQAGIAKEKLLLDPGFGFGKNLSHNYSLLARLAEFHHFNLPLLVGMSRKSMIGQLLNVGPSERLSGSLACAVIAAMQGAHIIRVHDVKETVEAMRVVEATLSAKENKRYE
Sequence of UniProt Q9I4X0 (whole entry, looked up): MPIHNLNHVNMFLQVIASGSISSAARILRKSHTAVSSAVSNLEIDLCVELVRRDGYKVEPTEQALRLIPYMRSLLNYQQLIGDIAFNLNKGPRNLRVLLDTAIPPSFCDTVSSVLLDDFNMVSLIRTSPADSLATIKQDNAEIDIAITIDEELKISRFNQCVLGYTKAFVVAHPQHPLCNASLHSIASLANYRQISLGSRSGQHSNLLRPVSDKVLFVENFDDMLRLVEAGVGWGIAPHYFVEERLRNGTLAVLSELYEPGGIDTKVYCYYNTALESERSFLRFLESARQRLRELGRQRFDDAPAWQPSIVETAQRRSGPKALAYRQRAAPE

SMILES	target	test	test system	conditions	scale	measurement	value
COc1cc(C#CC(=O)CC(C)C)ccc1O	mvfR (Pseudomonas aeruginosa, UniProt Q9I4X0)	receptor binding		concentration not given, 1.5 h, added: PQS at 1:1 ratio	relative to: control	binding	84%
C=CC(=O)N1CCC[C@@H](n2nc(-c3ccc(Oc4ccccc4)cc3)c3c(N)ncnc32)C1	ATM (Homo sapiens, UniProt Q13315)			10 µM		remaining activity	137%
O=C(O)c1ccc(Nc2ncc3c(n2)-c2ccc(Cl)cc2C(c2c(F)cccc2F)=NC3)cc1	Rsk3(h)	kinase activity		1 µM		remaining activity	76%
Nc1nc2c(ncn2[C@@H]2O[C@H](COP(=O)(O)O)[C@@H](O)[C@H]2O)c(=O)[nH]1	GUK1 (Homo sapiens, UniProt Q16774, S37P)	enzyme activity, NADH-coupled		500 µM		reaction rate	1.16 s⁻¹ and 1.47 s⁻¹ and 1.45 s⁻¹
CCN1CCC[C@H]1CNC(=O)c1c(O)c(Cl)cc(Cl)c1OC	GPR32 (Homo sapiens, UniProt O75388)	β-arrestin recruitment, TANGO luminescence		concentration not given	relative to: basal luminescence	log2 fold change	0.132
O=C(COP(=O)(O)O)[C@@H](O)[C@H](O)[C@H](O)COP(=O)(O)O	Nucleolar protein 56 (Homo sapiens, UniProt O00567)	thermal proteome profiling, refers to: NOP56	HepG2 cell lysate	concentration not given, 57 over 37 °C	relative to: compound over control	thermal stability ratio	0.472 and 0.541 and 0.652
CC1CCCN(C(=O)c2cc3ncccn3n2)C1 (stereo not shown)	DDB1- and CUL4-associated factor 7 (Homo sapiens, UniProt P61962)	binding, affinity selection mass spectrometry			relative to: other proteins in batch	log fold enrichment	0.0318
Cc1ccc(N(C)C(=O)/C=C/c2ccco2)cc1	Nicotinic acetylcholine receptor alpha9/alpha10 (Rattus norvegicus, UniProt P43144+Q9JLB5)	positive allosteric modulator	rat α9α10 expressing cells	added: ACh 100 µM		potentiation EC50	inactive
CCCCCCCCCCCCC/C=C/[C@@H](O)[C@H](CO)NC(=O)CCCCCCCCCCCCC	Protein SET (SET, Homo sapiens, UniProt Q01105, K222D)	lipid binding, GFP pull-down LC-MS/MS	A549 overexpressing GFP-tagged protein	unit not given	relative to: vector-transfected cells	bound endogenous lipid	6.6
C[C@H]1CCN(c2nccc(-c3cnn4ncccc34)n2)C1	ABL1 (Homo sapiens, UniProt P00519, T315I)			1 µM	relative to: control	remaining binding	98%
Nc1ccc(C(=O)O)cc1	BEST1, with wild-type BEST1 (Homo sapiens, UniProt O76090, A243T)	whole-cell patch clamp	HEK293 co-expressing WT and A243T mutant	concentration not given, membrane potential 0 mV		current density	-0.09 pA/pF and 0.04 pA/pF and 0 pA/pF and 0.16 pA/pF and -0.13 pA/pF and -0.03 pA/pF
COc1cc(-c2cc(C(C)=O)n3ccccc23)c(OC)cc1Cn1ccnc1	EP300 (Homo sapiens, UniProt Q09472)					ΔTm	5.9 °C
COc1ccc(Cl)cc1C(=O)NCCc1ccc(S(=O)(=O)NC(=O)NC2CCCCC2)cc1	SLC22A6 (Homo sapiens, UniProt Q4U2R8)		cells expressing hOAT1	added: 6-carboxyfluorescein	relative to: compound over cidofovir	affinity ratio	~60 fold
CCOC(=O)c1cccc(C(=O)c2c[nH]c3ccccc23)n1	AHR (Homo sapiens, UniProt P35869)	reporter gene, agonist, XRE luciferase	HepG2		relative to: ITE	Emax	44 ± 3%
NC(=O)C1=CN([C@@H]2O[C@H](COP(=O)(O)OP(=O)(O)OC[C@H]3O[C@@H](n4cnc5c(N)ncnc54)[C@H](O)[C@@H]3O)[C@@H](O)[C@H]2O)C=CC1	FSP1 F354A mutant	substrate		added: 100 µM co-substrate		Km	36.6 ± 17.6 µM
CC[C@H](C)[C@H](NC(=O)[C@H](CCCNC(=N)N)NC(=O)[C@H](Cc1c[nH]cn1)NC(=O)[C@H](CCCNC(=N)N)NC(=O)[C@H](CC(=O)O)NC(=O)[C@H](CC(=O)O)NC(=O)[C@@H](NC(=O)[C@H](CC(=O)O)NC(=O)[C@@H]1CCCN1C(=O)[C@@H](N)CC(C)C)[C@@H](C)O)C(=O)N[C@@H](CCC(=O)O)C(=O)N[C@@H](CCC(=O)O)C(=O)N[C@@H](CCCCN)C(=O)N[C@@H](CCCNC(=N)N)C(=O)N[C@@H](CCCCN)C(=O)N[C@@H](CCCNC(=N)N)C(=O)N[C@H](C(=O)N[C@@H](Cc1ccc(O)cc1)C(=O)N[C@@H](CCC(=O)O)C(=O)N[C@H](C(=O)N[C@@H](Cc1ccccc1)C(=O)N[C@@H](CCCCN)C(=O)N[C@@H](CO)C(=O)N[C@H](C(=O)N[C@@H](CCSC)C(=O)N[C@@H](CCCCN)C(=O)N[C@@H](CCCCN)C(=O)N[C@@H](CO)C(=O)N1CCC[C@H]1C(=O)N[C@@H](Cc1ccccc1)C(=O)N[C@@H](CC(N)=O)C(=O)NCC(=O)N1CCC[C@H]1C(=O)O)[C@@H](C)CC)[C@@H](C)O)[C@@H](C)O	NF-kappa-B inhibitor alpha	binding, ITC		pH 7.5, 293 K, 50 mM NaCl		ΔG	-8.1 ± 0.1 kcal/mol
Nc1ccc2ccc3cccc4ccc1c2c34	Aryl hydrocarbon receptor	reporter gene, agonist, luciferase reporter	ZF-4	4.572 µM	relative to: vehicle control	fold change	1.21
N#Cc1ccc(C(=O)Nc2cccc3[nH]ccc23)cc1	Alpha-synuclein (SNCA, Homo sapiens, UniProt P37840)	ThT kinetics		concentration not given, added: SNCA 2 µM		fibril formation	inhibited
NCCCCC(=O)O	SLC6A6 (Homo sapiens, UniProt P31641, Y138A)	binding, microscale thermophoresis		37.6 nM, fitted curve	higher = more binding	fraction bound	0
CCCCCCCCCCCCC/C=C/[C@@H](O)[C@H](CO)NC(=O)CCCCCCCCCCCCCCCCCCCCCCCCC	Protein SET (SET, Homo sapiens, UniProt Q01105, Y135C)	lipid binding, GFP pull-down LC-MS/MS	A549 overexpressing GFP-tagged protein	unit not given	relative to: vector-transfected cells	bound endogenous lipid	6.3
CC(=O)c1ccc(C)cc1C	Or8a1 (Mus musculus, UniProt Q60893)	odorant-evoked current, agonist	isolated olfactory neurons		relative to: acetophenone saturated response	Emax	102 ± 2%
O=c1nc(SCc2cc(F)cc(C(F)(F)F)c2)nc(SCc2ccc3sccc3c2)[nH]1	TOP2A	decatenation		7.8 µM, replicate 2		decatenated DNA	100%

SMILES	target	test	test system	conditions	scale	measurement	value
Cc1cc2ccccc2c2ccc3ccccc3c12	Aryl hydrocarbon receptor	reporter gene, agonist, luciferase reporter	ZF-4	30000 µM	relative to: vehicle control	fold change	5.22
CCC1(O)CCCN(C(=O)c2ccc(-c3ccc(F)c(NC(=O)CCl)c3)cc2)C1 (stereo not shown)	DNA dC->dU-editing enzyme APOBEC-3A (Homo sapiens, UniProt P31941)	covalent adduct, intact protein MS		3 h, 5-fold excess, 125 µM		unmodified protein	0%
Nc1ncnc2c1ncn2[C@@H]1O[C@H](COP(=O)(O)CP(=O)(O)OP(=O)(O)O)[C@@H](O)[C@H]1O	P2X purinoceptor 1 (P2RX1, Homo sapiens, UniProt P51575)	calcium influx		316 nM	relative to: ionomycin response	calcium influx	98.4% and 100% and 86.6% and 94.2%
CN1C(=O)/C(=C2\Nc3ccccc3\C2=N/O)c2ccc(Br)cc21	Aryl hydrocarbon receptor	reporter gene, agonist, luciferase reporter	ZF-4	0.032 µM	relative to: vehicle control	fold change	7.11
O=C(CCCCCCC(=O)Nc1ccccc1)NO	HDAC8 (Homo sapiens, UniProt Q9BY41)	ITC	Hepes buffer	pH 7.5		TΔS	2.1 kcal/mol
CNC[C@H](O)c1cccc(O)c1	ADRA1D (Homo sapiens, UniProt P25100)	calcium mobilization, agonist	COS-7, transiently expressing receptor		relative to: 3 µM ionomycin	Emax	~10%
Cc1ccc(N2CC(C(N)=O)CC2=O)cc1 (stereo not shown)	Huntingtin (HTT, Homo sapiens, UniProt P42858)	binding, affinity selection mass spectrometry			relative to: other proteins in batch	fold enrichment	0.911
N[C@@H](CO)C(=O)O	Lysozyme C (LYZ, Gallus gallus, UniProt P00698)	binding, sedimentation equilibrium AUC				association constant	1.55 ± 0.31 M⁻¹
C[C@H](CCCOc1cccc(CO)c1)[C@H]1CC[C@H]2[C@@H]3CC=C4C[C@@H](O)CC[C@]4(C)[C@H]3CC[C@]12C	NR1H3 (Homo sapiens, UniProt Q13133)	reporter gene, GAL4-LBD transactivation	HepG2			efficacy	14.6 ± 0.8%
COCCN1CCN(Cc2ccc(-c3n[nH]c4c3C(=O)c3c(NC(=O)NN5CCOCC5)cccc3-4)cc2)CC1	Protein kinase 6 (Plasmodium falciparum, UniProt Q8IDW1)	differential scanning fluorimetry		10 µM		Tm	40 °C
Cn1c2c(c3ccc(Cl)c(Cl)c31)C(C#N)C1(CCNCC1)NC2=O (racemic)	RPS6KA2 (Homo sapiens, UniProt Q15349)	thermal shift		10 µM, 2 µM protein	higher = stronger binding	ΔTm	1.7 °C
Cc1cnn2ncc(-c3ccnc(N(C)C)n3)c2c1	ABL1 (Homo sapiens, UniProt P00519, F317I)	KINOMEscan		1 µM		remaining binding	100% and 69%
Cc1cc(NS(=O)(=O)c2ccc(N)cc2)no1	folP (Bacteria, UniProt P0AC13)	CETSA HiBiT	Escherichia coli, whole cells	concentration not given	relative to: DMSO	melting temperature shift	2 °C
O=c1nc(SCc2cc(F)cc(C(F)(F)F)c2)nc(SCc2csc3ccc(Cl)cc23)[nH]1	TOP2A	DNA relaxation		15.6 µM		mean relaxed DNA	2.6%
Oc1ccccc1-c1n[nH]cc1-c1ccnc2ccccc12	pH-response regulator protein palF/RIM8 (RIM8, Candida albicans, UniProt Q9UW13)	kinase binding, MIB/MS competition	Candida albicans lysate	10 µM	relative to: DMSO, negative = stronger binding	log2 fold change	0.4
CCCCCCCCCCCCC/C=C/[C@@H](O)[C@H](CO)NC(=O)CCCCCCCCCCCCCCCCCCCCCCC	Protein SET (SET, Homo sapiens, UniProt Q01105)	lipid binding, GFP pull-down LC-MS/MS	A549 overexpressing GFP-tagged protein		relative to: eluate plus flow-through	lipid fraction bound	5.3%
CC[C@@H]1[C@H](F)C(=O)N[C@@H]1COc1nccc2cc(C(N)=O)c(OC)cc12	TLK1 (Homo sapiens, UniProt Q9UKI8)	ATP-site probe binding, ActivX profiling	THP-1 cell lysate	0.01 mM, Lys1 site		inhibition	10.2%
CC[C@H](C)[C@H](NC(=O)[C@H](CCCNC(=N)N)NC(=O)[C@H](Cc1c[nH]cn1)NC(=O)[C@H](CCCNC(=N)N)NC(=O)[C@H](CC(=O)O)NC(=O)[C@H](CC(=O)O)NC(=O)[C@@H](NC(=O)[C@H](CC(=O)O)NC(=O)[C@@H]1CCCN1C(=O)[C@@H](N)CC(C)C)[C@@H](C)O)C(=O)N[C@@H](CCC(=O)O)C(=O)N[C@@H](CCC(=O)O)C(=O)N[C@@H](CCCCN)C(=O)N[C@@H](CCCNC(=N)N)C(=O)N[C@@H](CCCCN)C(=O)N[C@@H](CCCNC(=N)N)C(=O)N[C@H](C(=O)N[C@@H](C)C(=O)N[C@@H](CCC(=O)O)C(=O)N[C@H](C(=O)N[C@@H](Cc1ccccc1)C(=O)N[C@@H](CCCCN)C(=O)N[C@@H](CO)C(=O)N[C@H](C(=O)N[C@@H](CCSC)C(=O)N[C@@H](CCCCN)C(=O)N[C@@H](CCCCN)C(=O)N[C@@H](CO)C(=O)N1CCC[C@H]1C(=O)N[C@@H](Cc1ccccc1)C(=O)N[C@@H](CC(N)=O)C(=O)NCC(=O)N1CCC[C@H]1C(=O)O)[C@@H](C)CC)[C@@H](C)O)[C@@H](C)O	NF-kappa-B inhibitor alpha	binding, ITC		pH 7.5, 293 K, 50 mM NaCl		ΔH	-2.3 ± 0.01 kcal/mol
Nc1ncnc2c1ncn2[C@@H]1O[C@H](COP(=O)(O)OP(=O)(O)O)[C@@H](O)[C@H]1O	Cell cycle histidine kinase CckA, CA domain (Caulobacter vibrioides, UniProt Q9X688)	binding, ITC		added: without c-di-GMP		ΔS	-2.62 cal/mol/K
O=C1C[C@@H](c2ccccc2)Oc2cc(O)cc(O)c21	Aryl hydrocarbon receptor	reporter gene, agonist, luciferase reporter	ZF-4	13.72 µM	relative to: vehicle control	fold change	1.07
CC[C@]1(O)C[C@@H]2CN(CCc3c([nH]c4ccccc34)[C@@](C(=O)OC)(c3cc4c(cc3OC)N(C)[C@H]3[C@@](O)(C(N)=O)[C@H](O)[C@]5(CC)C=CCN6CC[C@]43[C@@H]65)C2)C1	GABA-A receptor; alpha-1/beta-2/gamma-2 (Rattus norvegicus, UniProt P18508+P62813+P63138)	membrane potential, agonist, QP-DHM primary screen	HEK293 expressing GABAA	10 µM	direction not given	normalized score	0.322

For quick reference, copied from above:
SMILES	target	test	test system	conditions	scale	measurement	value
Cc1ccc(N(C)C(=O)/C=C/c2ccco2)cc1	Nicotinic acetylcholine receptor alpha9/alpha10 (Rattus norvegicus, UniProt P43144+Q9JLB5)	positive allosteric modulator	rat α9α10 expressing cells	added: ACh 100 µM		potentiation EC50	inactive
CCCCCCCCCCCCC/C=C/[C@@H](O)[C@H](CO)NC(=O)CCCCCCCCCCCCC	Protein SET (SET, Homo sapiens, UniProt Q01105, K222D)	lipid binding, GFP pull-down LC-MS/MS	A549 overexpressing GFP-tagged protein	unit not given	relative to: vector-transfected cells	bound endogenous lipid	6.6
C[C@H]1CCN(c2nccc(-c3cnn4ncccc34)n2)C1	ABL1 (Homo sapiens, UniProt P00519, T315I)			1 µM	relative to: control	remaining binding	98%
Nc1ccc(C(=O)O)cc1	BEST1, with wild-type BEST1 (Homo sapiens, UniProt O76090, A243T)	whole-cell patch clamp	HEK293 co-expressing WT and A243T mutant	concentration not given, membrane potential 0 mV		current density	-0.09 pA/pF and 0.04 pA/pF and 0 pA/pF and 0.16 pA/pF and -0.13 pA/pF and -0.03 pA/pF
COc1cc(-c2cc(C(C)=O)n3ccccc23)c(OC)cc1Cn1ccnc1	EP300 (Homo sapiens, UniProt Q09472)					ΔTm	5.9 °C
